Results collected from several papers.

Structure (SMILES) = C[C@H]1CN(C(=O)CC#N)[C@]12CCN(c1ncnc3[nH]ccc13)C2; system = healthy adults, plasma; setting = oral, 1.5 mg single dose, median; endpoint = Tmax; result = 1 h
Structure (SMILES) = C=CC(=O)NC1CCN(c2ncc3ncnc(Nc4ccc(Oc5ccc6c(c5)ncn6C)c(C)c4)c3n2)CC1; test = refers to: total radioactivity; system = healthy male volunteers, plasma; setting = oral solution, 60 mg, together with: [14C]-labelled compound; endpoint = tmax; result = 1 h
Structure (SMILES) = CO[C@H]1CC[C@H](N2C(=O)CNc3ncc(-c4ccc(C(C)(C)O)nc4)nc32)CC1; system = patients, plasma; setting = oral, 30 mg, day 15, median; endpoint = Tmax; result = 1.28 h
Structure (SMILES) = CN(CCC(=O)O)C(=O)c1ccc2c(c1)CC[C@@H]1[C@@H]2CC[C@]2(C)C(c3cncc(F)c3)=CC[C@@H]12; system = postmenopausal women, plasma; setting = 90 mg single dose, median; endpoint = Tmax; result = 1.52 h
Structure (SMILES) = C[C@@H](N)C1CCN(S(=O)(=O)c2cccc3cnccc23)CC1; system = healthy volunteers, fasted, plasma; setting = oral, 250 mg; endpoint = tmax; result = 0.5 h
Structure (SMILES) = CCOc1c([C@H](C)n2nc(C)c3c(N)ncnc32)cc(Cl)c(F)c1[C@@H]1CNC(=O)C1; system = patients, monotherapy; setting = oral, 15 mg once daily, cycle 1 day 1; endpoint = Tmax median; result = 1 h
Structure (SMILES) = CCCCC[C@H](O)CC[C@@H]1[C@H]2Cc3cccc(OCC(=O)O)c3C[C@H]2C[C@H]1O; test = LC-MS/MS; system = Japanese IPAH/HPAH patients, plasma; setting = inhaled, 54 µg, mean; endpoint = Tmax; result = 0.23 h
Structure (SMILES) = O=C([O-])CCCCCCCNC(=O)c1ccccc1O.[Na+]; system = healthy male and female subjects; setting = without semaglutide, median; endpoint = tmax; result = 0.7 h

Repeated from above:
Structure (SMILES) = CO[C@H]1CC[C@H](N2C(=O)CNc3ncc(-c4ccc(C(C)(C)O)nc4)nc32)CC1; system = patients, plasma; setting = oral, 30 mg, day 15, median; endpoint = Tmax; result = 1.28 h
